{"data": "Results collected from several papers", "note": "Every numbered part comes from another study and shows a few of its results, in no order. Changes are numbered by the printed parent chain.", "UniProt Q00526, sequence (whole entry, looked up)": "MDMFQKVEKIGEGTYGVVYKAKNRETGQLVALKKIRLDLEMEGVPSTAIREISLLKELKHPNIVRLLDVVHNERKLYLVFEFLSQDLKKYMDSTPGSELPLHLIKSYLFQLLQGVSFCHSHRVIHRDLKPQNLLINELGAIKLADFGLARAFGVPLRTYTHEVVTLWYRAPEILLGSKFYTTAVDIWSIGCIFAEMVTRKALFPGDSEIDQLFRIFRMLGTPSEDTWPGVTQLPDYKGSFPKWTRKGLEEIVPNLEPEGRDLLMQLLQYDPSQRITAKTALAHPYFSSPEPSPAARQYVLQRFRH", "UniProt P06239, sequence (whole entry, looked up)": "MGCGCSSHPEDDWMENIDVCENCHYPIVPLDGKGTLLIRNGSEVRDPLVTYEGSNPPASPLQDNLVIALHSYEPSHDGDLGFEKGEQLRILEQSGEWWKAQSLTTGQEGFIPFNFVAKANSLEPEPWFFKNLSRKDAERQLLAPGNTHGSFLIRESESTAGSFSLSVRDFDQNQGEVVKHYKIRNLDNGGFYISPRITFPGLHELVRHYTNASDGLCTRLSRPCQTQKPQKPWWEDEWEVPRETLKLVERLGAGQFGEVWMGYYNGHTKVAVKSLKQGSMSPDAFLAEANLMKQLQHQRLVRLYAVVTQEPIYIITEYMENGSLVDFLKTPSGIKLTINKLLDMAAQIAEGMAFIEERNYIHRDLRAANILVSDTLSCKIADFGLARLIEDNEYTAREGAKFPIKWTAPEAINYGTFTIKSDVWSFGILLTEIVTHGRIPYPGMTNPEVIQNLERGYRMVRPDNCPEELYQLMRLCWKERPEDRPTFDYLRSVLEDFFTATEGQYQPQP", "UniProt P54760, sequence (whole entry, looked up)": "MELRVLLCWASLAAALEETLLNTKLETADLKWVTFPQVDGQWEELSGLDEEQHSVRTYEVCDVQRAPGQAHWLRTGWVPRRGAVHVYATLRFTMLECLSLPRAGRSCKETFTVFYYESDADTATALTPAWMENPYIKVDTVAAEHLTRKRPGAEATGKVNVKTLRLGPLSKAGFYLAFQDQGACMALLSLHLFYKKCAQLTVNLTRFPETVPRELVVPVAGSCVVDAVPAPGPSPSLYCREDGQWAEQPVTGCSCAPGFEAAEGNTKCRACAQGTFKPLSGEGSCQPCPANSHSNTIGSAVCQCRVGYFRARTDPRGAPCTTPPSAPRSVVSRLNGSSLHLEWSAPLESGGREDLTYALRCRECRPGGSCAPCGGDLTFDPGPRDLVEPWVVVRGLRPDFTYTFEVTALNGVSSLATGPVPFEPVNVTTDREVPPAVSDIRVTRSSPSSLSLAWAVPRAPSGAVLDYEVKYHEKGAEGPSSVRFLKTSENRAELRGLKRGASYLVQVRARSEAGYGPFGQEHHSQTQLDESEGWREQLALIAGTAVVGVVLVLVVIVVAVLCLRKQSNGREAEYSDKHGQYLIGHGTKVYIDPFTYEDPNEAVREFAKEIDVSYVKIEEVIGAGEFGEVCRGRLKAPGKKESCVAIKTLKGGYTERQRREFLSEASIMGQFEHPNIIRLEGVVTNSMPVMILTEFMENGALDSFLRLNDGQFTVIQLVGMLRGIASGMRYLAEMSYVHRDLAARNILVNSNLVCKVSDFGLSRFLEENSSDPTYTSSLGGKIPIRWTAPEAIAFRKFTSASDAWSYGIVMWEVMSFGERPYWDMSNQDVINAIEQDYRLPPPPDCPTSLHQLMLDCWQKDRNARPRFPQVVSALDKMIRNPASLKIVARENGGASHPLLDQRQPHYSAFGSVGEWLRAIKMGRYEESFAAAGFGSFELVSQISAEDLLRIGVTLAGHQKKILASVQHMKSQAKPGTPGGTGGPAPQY", "UniProt P07949, sequence (whole entry, unmodified, looked up)": "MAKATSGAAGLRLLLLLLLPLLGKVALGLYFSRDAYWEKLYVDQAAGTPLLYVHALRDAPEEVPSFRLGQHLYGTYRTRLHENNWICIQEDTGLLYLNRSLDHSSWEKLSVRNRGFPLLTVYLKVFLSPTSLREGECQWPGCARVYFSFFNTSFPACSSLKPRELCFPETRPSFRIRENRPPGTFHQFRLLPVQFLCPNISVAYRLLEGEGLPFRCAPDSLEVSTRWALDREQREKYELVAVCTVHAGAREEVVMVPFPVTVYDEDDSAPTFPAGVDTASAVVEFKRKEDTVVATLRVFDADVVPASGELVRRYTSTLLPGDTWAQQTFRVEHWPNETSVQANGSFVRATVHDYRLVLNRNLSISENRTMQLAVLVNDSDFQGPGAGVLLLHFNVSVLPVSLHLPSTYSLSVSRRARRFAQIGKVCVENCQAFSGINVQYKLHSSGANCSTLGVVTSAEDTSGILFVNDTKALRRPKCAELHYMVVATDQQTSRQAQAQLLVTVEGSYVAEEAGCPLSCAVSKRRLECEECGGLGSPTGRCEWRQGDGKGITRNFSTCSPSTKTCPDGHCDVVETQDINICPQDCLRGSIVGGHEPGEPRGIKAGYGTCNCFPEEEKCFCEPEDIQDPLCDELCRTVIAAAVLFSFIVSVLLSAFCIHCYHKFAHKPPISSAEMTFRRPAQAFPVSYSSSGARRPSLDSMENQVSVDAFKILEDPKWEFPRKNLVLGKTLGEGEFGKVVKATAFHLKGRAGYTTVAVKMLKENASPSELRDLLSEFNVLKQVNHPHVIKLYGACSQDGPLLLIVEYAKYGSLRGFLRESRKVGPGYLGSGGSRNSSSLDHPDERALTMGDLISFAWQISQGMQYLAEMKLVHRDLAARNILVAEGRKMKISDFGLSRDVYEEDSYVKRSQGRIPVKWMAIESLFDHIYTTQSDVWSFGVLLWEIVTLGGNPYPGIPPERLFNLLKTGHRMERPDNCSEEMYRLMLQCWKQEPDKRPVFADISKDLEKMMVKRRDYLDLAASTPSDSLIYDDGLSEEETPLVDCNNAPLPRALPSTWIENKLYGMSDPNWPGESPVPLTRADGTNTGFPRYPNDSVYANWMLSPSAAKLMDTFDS", "UniProt Q2M2I8, sequence (whole entry, looked up)": "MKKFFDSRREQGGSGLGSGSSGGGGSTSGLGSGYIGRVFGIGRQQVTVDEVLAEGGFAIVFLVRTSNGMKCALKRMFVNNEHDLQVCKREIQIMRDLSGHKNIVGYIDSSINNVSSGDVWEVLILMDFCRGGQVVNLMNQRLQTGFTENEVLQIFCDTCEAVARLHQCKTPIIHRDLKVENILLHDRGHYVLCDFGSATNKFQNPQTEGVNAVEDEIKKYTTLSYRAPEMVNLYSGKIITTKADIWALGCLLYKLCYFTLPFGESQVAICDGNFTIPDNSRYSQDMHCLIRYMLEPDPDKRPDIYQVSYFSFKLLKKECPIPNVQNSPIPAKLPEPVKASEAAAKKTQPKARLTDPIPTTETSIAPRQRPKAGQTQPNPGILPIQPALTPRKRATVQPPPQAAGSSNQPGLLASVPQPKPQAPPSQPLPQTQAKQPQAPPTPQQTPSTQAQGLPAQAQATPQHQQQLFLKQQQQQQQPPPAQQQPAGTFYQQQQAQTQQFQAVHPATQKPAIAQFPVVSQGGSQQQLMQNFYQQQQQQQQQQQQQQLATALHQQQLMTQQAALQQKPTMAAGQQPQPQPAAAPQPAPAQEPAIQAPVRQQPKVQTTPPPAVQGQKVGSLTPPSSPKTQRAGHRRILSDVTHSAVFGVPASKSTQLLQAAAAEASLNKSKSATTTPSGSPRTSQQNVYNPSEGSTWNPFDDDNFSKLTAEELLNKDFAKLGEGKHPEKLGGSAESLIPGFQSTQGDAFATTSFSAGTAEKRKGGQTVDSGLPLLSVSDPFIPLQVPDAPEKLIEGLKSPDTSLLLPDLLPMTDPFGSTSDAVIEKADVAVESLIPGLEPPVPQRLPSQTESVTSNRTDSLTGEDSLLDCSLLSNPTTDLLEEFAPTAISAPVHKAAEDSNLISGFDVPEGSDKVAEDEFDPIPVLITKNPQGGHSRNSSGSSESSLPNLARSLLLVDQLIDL", "UniProt P37173, sequence (whole entry, looked up)": "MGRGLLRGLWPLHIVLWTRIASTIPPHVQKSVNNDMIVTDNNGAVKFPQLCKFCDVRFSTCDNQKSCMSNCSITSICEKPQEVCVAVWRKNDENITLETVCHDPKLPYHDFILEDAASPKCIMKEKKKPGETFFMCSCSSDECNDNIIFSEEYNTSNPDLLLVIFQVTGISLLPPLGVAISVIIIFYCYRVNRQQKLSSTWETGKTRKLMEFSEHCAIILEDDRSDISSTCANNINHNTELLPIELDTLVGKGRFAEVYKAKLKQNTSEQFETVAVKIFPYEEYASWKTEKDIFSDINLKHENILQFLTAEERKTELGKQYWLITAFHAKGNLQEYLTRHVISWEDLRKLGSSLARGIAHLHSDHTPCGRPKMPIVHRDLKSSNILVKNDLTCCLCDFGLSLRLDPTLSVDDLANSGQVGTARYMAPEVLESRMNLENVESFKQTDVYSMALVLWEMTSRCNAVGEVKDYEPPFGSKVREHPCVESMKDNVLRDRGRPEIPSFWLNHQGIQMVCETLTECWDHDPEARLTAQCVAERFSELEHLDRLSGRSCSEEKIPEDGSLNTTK"}
{"data": "Series 1", "target": "Ras GTPase-activating protein-binding protein 1, full length (G3BP1, Homo sapiens, UniProt Q13283)", "technique": "RNA Bind-n-Seq", "form": "RNA", "sample": "in vitro", "tested at": "200 nM", "notes": "whole 134-nt RNA, ends assumed", "with": "150 mM KCl", "relative to": "input library", "direction": "higher = stronger binding", "all sequences stand within": "GGGAGUUCUACAGUCCGACGAUC … UGGAAUUCUCGGGUGUCAAGG", "UniProt Q13283, sequence (whole entry, looked up)": "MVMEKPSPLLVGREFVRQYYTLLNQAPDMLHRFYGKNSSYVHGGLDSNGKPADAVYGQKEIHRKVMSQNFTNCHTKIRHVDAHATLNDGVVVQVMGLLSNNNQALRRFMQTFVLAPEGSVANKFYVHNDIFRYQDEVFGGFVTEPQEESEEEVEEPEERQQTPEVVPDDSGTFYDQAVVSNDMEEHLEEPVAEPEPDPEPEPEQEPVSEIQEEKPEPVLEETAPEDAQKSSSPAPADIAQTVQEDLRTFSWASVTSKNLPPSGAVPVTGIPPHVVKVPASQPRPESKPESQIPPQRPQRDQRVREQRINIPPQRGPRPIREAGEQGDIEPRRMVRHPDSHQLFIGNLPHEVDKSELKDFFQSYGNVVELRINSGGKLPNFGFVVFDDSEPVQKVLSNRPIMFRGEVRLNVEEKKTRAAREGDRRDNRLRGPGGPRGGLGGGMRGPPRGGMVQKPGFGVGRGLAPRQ"}
{"Strand": "GCAGGAUGUAAAAACAAAUGGAAAUGCUUCGGAUAGUGGCAGGGGUGGGGGUUGCUAAGGAAAGGGUGGGAUGGGAGUGGGUAAAGAGUU", "log2 enrichment": 1.17}
{"Strand": "AGUCCUGUGCUACACAUCGUAUGUACCGAAUCGGGGCCCCGGGGCCCCGGGGCCCCGGAAAGUAUUAUGUUACGCCGUUCGGAUCUGCAC", "log2 enrichment": 0.874}
{"Strand": "UGGGAGGUGGAUUUUGUUUAUUUUUUUAGCUCAUUUCCAGGGGUGGGAAUUUUUUUUUAAUAUGUGUCAUGAAUAAAGUUGUUCUUGAAA", "log2 enrichment": 0.326}
{"Strand": "GUCCUGUGCUACACAUCGUAUGUACCGAAUCAAAUUUUUAAACCCCCCCAAAUUUAAAAAAGUAUUAUGUUACGCCGUUCGGAUCUGCAC", "log2 enrichment": 0.0643}
{"Strand": "UCCUGUGCUACACAUCGUAUGUACCGAAUCGGAAAAAAAGGUUUUUUUGGAAAAAAAGGAAAGUAUUAUGUUACGCCGUUCGGAUCUGCA", "log2 enrichment": -0.961}
{"Strand": "ACCAUGCAGGUGGGCAUCUUUGGGAAGUGGGGCAAGGGGGGGAUAGGGAGGGGGGUCACACUUUGGGAACAGGUGGUCCCAGGUCGUUUC", "log2 enrichment": 1.43}
{"Strand": "UGGGAGGUGGAUUUUGUUUAUUUUUUUAGCUCAUUUCCAGGGGUGGGCAUUUUUUUUUAAUAUGUGUCAUGAAUAAAGUUGUUUUUGAAA", "log2 enrichment": 0.287}
{"Strand": "AGUCCUGUGCUACACAUCGUAUGUACCGAAUCGGGCCCCGGGGCCCCGGCCCCGGGGAAAGUAUUAUGUUACGCCGUUCGGAUCUGCACU", "log2 enrichment": -1.23}
{"data": "Series 2", "Structure (SMILES)": "CCC(=N\\O)/C(C)=C/c1ccc(F)cc1", "tested at": "1 µM"}
{"target": "Tyrosine-protein kinase ABL1, phosphorylated (ABL1, Homo sapiens, UniProt P00519, F317I)", "test": "cell-free assay, competition with immobilised ligand", "remaining binding [%]": 77}
{"target": "FGFR3 (Homo sapiens, UniProt P22607, G697C)", "test": "cell-free assay, competition with immobilised ligand", "remaining binding [%]": 84}
{"target": "TLK1 (Homo sapiens, UniProt Q9UKI8)", "test": "cell-free assay, competition with immobilised ligand", "remaining binding [%]": 100}
{"target": "GRK7 (Homo sapiens, UniProt Q8WTQ7)", "test": "cell-free assay, competition with immobilised ligand", "remaining binding [%]": 85}
{"target": "PIK3CA (Homo sapiens, UniProt P42336, C420R)", "test": "cell-free assay, competition with immobilised ligand", "remaining binding [%]": 79}
{"target": "TGFBR2 (Homo sapiens, UniProt P37173)", "test": "cell-free assay, competition with immobilised ligand", "remaining binding [%]": 74}
{"target": "TAOK2 (Homo sapiens, UniProt Q9UL54)", "test": "cell-free assay, competition with immobilised ligand", "remaining binding [%]": 94}
{"target": "CSK (Homo sapiens, UniProt P41240)", "test": "cell-free assay, competition with immobilised ligand", "remaining binding [%]": 100}
{"target": "NEK9 (Homo sapiens, UniProt Q8TD19)", "test": "cell-free assay, competition with immobilised ligand", "remaining binding [%]": 79}
{"target": "LCK (Homo sapiens, UniProt P06239)", "test": "cell-free assay, competition with immobilised ligand", "remaining binding [%]": 82}
{"target": "RET (Homo sapiens, UniProt P07949, V804L)", "test": "cell-free assay, competition with immobilised ligand", "remaining binding [%]": 100}
{"target": "MAPK13 (Homo sapiens, UniProt O15264)", "test": "cell-free assay, competition with immobilised ligand", "remaining binding [%]": 92}
{"target": "CDK3 (Homo sapiens, UniProt Q00526)", "test": "cell-free assay, competition with immobilised ligand", "remaining binding [%]": 84}
{"target": "AAK1 (Homo sapiens, UniProt Q2M2I8)", "test": "KINOMEscan", "scale": "relative to: control", "remaining binding [%]": 89}
{"target": "NUAK2 (Homo sapiens, UniProt Q9H093)", "test": "cell-free assay, competition with immobilised ligand", "remaining binding [%]": 73}
{"target": "AKT3 (Homo sapiens, UniProt Q9Y243)", "test": "cell-free assay, competition with immobilised ligand", "remaining binding [%]": 83}
{"target": "TBK1 (Homo sapiens, UniProt Q9UHD2)", "test": "cell-free assay, competition with immobilised ligand", "remaining binding [%]": 75}
{"target": "PRKD1 (Homo sapiens, UniProt Q15139)", "test": "cell-free assay, competition with immobilised ligand", "remaining binding [%]": 71}
{"target": "Tyrosine-protein kinase ABL1, phosphorylated (ABL1, Homo sapiens, UniProt P00519, T315I)", "test": "cell-free assay, competition with immobilised ligand", "remaining binding [%]": 87}
{"target": "ULK3 (Homo sapiens, UniProt Q6PHR2)", "test": "cell-free assay, competition with immobilised ligand", "remaining binding [%]": 74}
{"target": "EPHB4 (Homo sapiens, UniProt P54760)", "test": "cell-free assay, competition with immobilised ligand", "remaining binding [%]": 73}
{"data": "Series 3", "target": "Tyrosine-protein kinase Fgr (FGR, Homo sapiens, UniProt P09769)", "read-out": "enzyme activity", "mode": "inhibitor", "tested at": "0.5 µM", "relative to": "control"}
{"Compound": "O=c1c2ccccc2[nH]c(=S)n1CCN1CCC(=C(c2ccc(F)cc2)c2ccc(F)cc2)CC1", "remaining activity [%]": 95.4}
{"Compound": "COc1ccc(CNC(=O)Nc2ncc([N+](=O)[O-])s2)cc1", "remaining activity [%]": 92.4}
{"Compound": "NCCNc1ncc(C(N)=O)c(Nc2cccc(C(F)(F)F)c2)n1", "remaining activity [%]": 48.7}
{"Compound": "O=C(CCCc1ccc(-c2ccccc2F)cc1)Nc1ccc(O)cc1", "remaining activity [%]": 96}
{"Compound": "Nc1ccc2ncnc(NCCc3ccc(Oc4ccccc4)cc3)c2c1", "remaining activity [%]": 101}
{"Compound": "Oc1ccc(-c2nc(-c3ccncc3)c(-c3ccc(F)cc3)[nH]2)cc1", "remaining activity [%]": 93}
{"Compound": "CO[C@H]1C[C@@H]2CC[C@@H](C)[C@@](O)(O2)C(=O)C(=O)N2CCCC[C@H]2C(=O)O[C@H]([C@H](C)C[C@@H]2CC[C@@H](O)[C@H](OC)C2)CC(=O)[C@H](C)/C=C(\\C)[C@@H](O)[C@@H](OC)C(=O)[C@H](C)C[C@H](C)/C=C/C=C/C=C/1C", "remaining activity [%]": 94.5}
{"Compound": "Cc1nc(-c2ccccc2)c(-c2ccncc2)o1", "remaining activity [%]": 89.7}
{"Compound": "COc1ccc(OC)c2c(=S)c3ccccc3[nH]c12", "remaining activity [%]": 90.8}
{"Compound": "CN(C)c1ccc(C=C2C(=O)Nc3ccccc32)cc1", "remaining activity [%]": 90}
{"Compound": "O=C(O)c1ccc2c3c1cccc3c(=O)n1c3ccccc3nc21", "remaining activity [%]": 98.9}
{"Compound": "Nc1ncnc2n[nH]c(Nc3ccc(F)cc3)c12", "remaining activity [%]": 89.5}
{"Compound": "COc1cc2nccc(Oc3ccc(NC(=S)NC(=O)c4ccccc4C)cc3)c2cc1OC", "remaining activity [%]": 21.2}
{"Compound": "O=C1NC(=O)C(c2cn(CCCn3ccnc3)c3ccccc23)=C1Nc1ccccc1", "remaining activity [%]": 86.3}
{"Compound": "O=C1NC(=O)C(c2cn(CCCO)c3ncccc23)=C1c1cnccn1", "remaining activity [%]": 108}
{"data": "Series 4", "Substitution": "K58T", "target": "ABI1, truncated, D143A, DHFR fusion (Arabidopsis thaliana)", "technique": "DHFR PCA, deep sequencing", "sample": "yeast", "notes": "methotrexate growth selection, single substitutions", "relative to": "wild-type fitted maximum", "direction": "higher = stronger binding", "starting sequence": "PYL1, truncated, DHFR fusion (Arabidopsis thaliana); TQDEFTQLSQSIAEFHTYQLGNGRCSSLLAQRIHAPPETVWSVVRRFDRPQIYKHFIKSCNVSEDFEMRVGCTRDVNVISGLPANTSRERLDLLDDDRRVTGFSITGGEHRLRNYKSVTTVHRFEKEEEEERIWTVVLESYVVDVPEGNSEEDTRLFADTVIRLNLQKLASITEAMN; partner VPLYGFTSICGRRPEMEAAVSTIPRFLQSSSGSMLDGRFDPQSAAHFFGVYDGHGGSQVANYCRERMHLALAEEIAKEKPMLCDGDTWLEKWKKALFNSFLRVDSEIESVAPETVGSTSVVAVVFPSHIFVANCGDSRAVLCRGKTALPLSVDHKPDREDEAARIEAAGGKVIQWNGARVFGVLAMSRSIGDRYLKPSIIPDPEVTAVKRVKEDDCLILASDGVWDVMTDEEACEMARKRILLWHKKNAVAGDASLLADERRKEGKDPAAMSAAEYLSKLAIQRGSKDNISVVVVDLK"}
{"setting": "with: (+)-ABA 710 µM", "relative binding score [%]": 94.7}
{"setting": "with: (+)-ABA 4.8 µM", "relative binding score [%]": 35.4}
{"setting": "with: (+)-ABA 200 µM", "relative binding score [%]": 92.3}
{"setting": "with: (+)-ABA 0.39 µM", "relative binding score [%]": 2.12}
{"setting": "with: (+)-ABA 0.0091 µM", "relative binding score [%]": 3.9}
{"setting": "with: (+)-ABA 2500 µM", "relative binding score [%]": 92.8}
